# Results of several laboratories.
# Parts stem from different laboratories: compare values within a part only. Substitutions count along the parent as printed.

# Set 1 — target: CEBPA, bZIP domain (human); technique: DHFR protein complementation; matrix: yeast; relative to: wild-type JUN-FOS pair; reading: higher = stronger binding
# Notes: single substitutions, most at no-binding floor
# Starting sequence: JUN, bZIP domain (human); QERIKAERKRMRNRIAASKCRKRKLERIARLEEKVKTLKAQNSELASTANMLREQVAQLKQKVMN; partner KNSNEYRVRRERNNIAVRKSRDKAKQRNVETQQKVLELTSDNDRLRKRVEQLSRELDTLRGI
Change,binding fitness [natural log]
V56L,-1.41
A49H,-1.37
T37G,-1.47
K34A,-1.43
K36S,-1.47
I28H,-1.34
K36C,-1.26
T48H,-1.42

# Set 2 — read-out: peptide-MHC binding; form: peptide; concentration: concentration not given
# Target: HLA class I histocompatibility antigen, A alpha chain, allele A*25:01 (Homo sapiens, UniProt P04439)
Sequence,binding
TKAGMAQYL,inactive
KVYWAGIEF,inactive
YRRKLTNPA,inactive
LAMLVLHQV,inactive

# Set 3 — target: CCNB1, cyclin fold, Cln2 fusion (human); technique: yeast growth competition, sequencing; matrix: yeast; notes: strong parent motif; relative to: not given; reading: higher = stronger binding
# Starting sequence: viral docking peptide; TSVRRALFTGGSD; partner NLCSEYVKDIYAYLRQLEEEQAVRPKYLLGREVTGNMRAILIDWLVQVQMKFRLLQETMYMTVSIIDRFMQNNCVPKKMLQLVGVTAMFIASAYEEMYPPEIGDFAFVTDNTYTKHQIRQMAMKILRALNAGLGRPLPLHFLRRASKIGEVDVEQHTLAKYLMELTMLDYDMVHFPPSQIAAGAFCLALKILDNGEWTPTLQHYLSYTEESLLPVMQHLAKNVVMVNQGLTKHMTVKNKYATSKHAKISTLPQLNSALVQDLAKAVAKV
Change,normalised enrichment score
TSVRRTLFTGGSD [A6T],0.609
TSVRRALFTFGSD [G10F],1.07
TSVRFALFTGGSD [R5F],-0.0867
TSVRPALFTGGSD [R5P],-0.56
TSVRRALFTGASD [G11A],2.13
TKVRRALFTGGSD [S2K],1.35
TAVRRALFTGGSD [S2A],1.29
TSVMRALFTGGSD [R4M],1.12
TSVRRALNTGGSD [F8N],0.24
TSVRRCLFTGGSD [A6C],2.17
TIVRRALFTGGSD [S2I],1.06
TSVRRALFTGTSD [G11T],2.45
TSVRRAVFTGGSD [L7V],0.635
TSVRRALFTMGSD [G10M],1.25

# Set 4 — technique: competition protein-binding microarray; form: double-stranded DNA, one strand shown; matrix: in vitro; concentration: 2 µM; with: Pho4 competitor, 0.05 µM; reading: higher = stronger binding; shared flanks, not repeated: … GTCTTGATTCGCTTGACGCTGCTG
# Target: Centromere-binding protein 1, full length, His-tagged (CBF1, Saccharomyces cerevisiae, UniProt P17106, residues 1-351)
# UniProt P17106, sequence (whole entry, looked up): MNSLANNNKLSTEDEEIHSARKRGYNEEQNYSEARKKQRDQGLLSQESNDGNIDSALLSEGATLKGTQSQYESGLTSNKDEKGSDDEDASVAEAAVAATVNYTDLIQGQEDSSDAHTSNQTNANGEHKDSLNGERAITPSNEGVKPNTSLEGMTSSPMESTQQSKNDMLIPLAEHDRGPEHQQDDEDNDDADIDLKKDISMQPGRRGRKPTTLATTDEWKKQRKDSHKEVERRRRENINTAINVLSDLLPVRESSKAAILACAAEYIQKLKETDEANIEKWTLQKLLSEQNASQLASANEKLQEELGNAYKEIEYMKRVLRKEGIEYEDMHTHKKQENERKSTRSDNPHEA
# Notes: whole 60-bp probe, lowest competitor level
Oligonucleotide,fluorescence intensity [a.u.]
CATACCCAACCTTGGGCTGTGGGTGAAGATATTTGT,59.7
AAATTACTAAGTTGTCACTCGACTTACCCCGTATGA,93.3
CTAACGAAGGTTTGACTGGTGGGTGACAAGCCAAGT,78.8
CTAACGAAGGTTTTTCACGTGCAATACAAGCCAAGT,1080
TCAAGACCCTTAAAGCACGTTTTTTTCAGGCTCGGC,226
CATACCCAACCTTTTCACGTGCGGTAAGATATTTGT,786
GCAACCAGGGGCCACCACGTGAAGAACTGAGCAATC,560
GTAGCCCCACAATTTCACCTGCCATATAACATAAGG,75.4

# Some of these lines once more (set 3):
Change,normalised enrichment score
TAVRRALFTGGSD [S2A],1.29
TSVMRALFTGGSD [R4M],1.12
TSVRRALNTGGSD [F8N],0.24
TSVRRCLFTGGSD [A6C],2.17
